Experimental data from different studies.
Numbered parts are unrelated; each lists some results of a single study. Changes are numbered by the printed parent chain.

Set 1
Target: Ras GTPase-activating protein-binding protein 1, C-terminal RGG region (G3BP1, Homo sapiens, UniProt Q13283)
Sequence of UniProt Q13283 (whole entry, looked up): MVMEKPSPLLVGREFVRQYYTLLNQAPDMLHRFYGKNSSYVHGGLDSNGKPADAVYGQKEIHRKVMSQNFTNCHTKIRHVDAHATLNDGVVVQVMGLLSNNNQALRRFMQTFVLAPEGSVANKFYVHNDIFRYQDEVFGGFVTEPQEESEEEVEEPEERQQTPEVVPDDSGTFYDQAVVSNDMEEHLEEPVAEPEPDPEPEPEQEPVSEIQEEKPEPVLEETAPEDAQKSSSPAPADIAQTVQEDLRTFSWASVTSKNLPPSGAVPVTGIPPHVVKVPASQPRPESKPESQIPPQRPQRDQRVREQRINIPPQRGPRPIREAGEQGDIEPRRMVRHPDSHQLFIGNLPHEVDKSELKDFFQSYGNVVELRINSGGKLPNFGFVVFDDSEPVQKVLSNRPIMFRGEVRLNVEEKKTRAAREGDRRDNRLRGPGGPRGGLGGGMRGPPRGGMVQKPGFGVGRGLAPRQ
Technique: RNA Bind-n-Seq
Molecule type: RNA
Matrix: in vitro
Tested at: 1 µM
Setting: whole 134-nt RNA, ends assumed
With: 150 mM KCl
Baseline: input library
Reading: higher = stronger binding
Constant ends, left off below: GGGAGUUCUACAGUCCGACGAUC … UGGAAUUCUCGGGUGUCAAGG
Strand | log2 enrichment
UGGGAGGUGGAUUUUGUUUAUUUUUUUAGCUCAUUCCCAGGGGUGGGAAUUUUUUUUUAAUAUGUGUCAUGAAUAAAGUUGUUUUUGAAA | 3.47
ACCAUGCAGGUGGGCAUCUUUGGGAAGUGGGGCAAGGGGGGGAUAGGCAGGGGGGUAACACUUUGGGAACAGGUGGUCCCAGGUCGUUUC | 2.27
GUCCUGUGCUACACAUCGUAUGUACCGAAUCGGGGAAAAAGGGGUUUUUGGGGUGGGGAAAGUAUUAUGUUACGCCGUUCGGAUCUGCAC | 1.13
AAUAACUGACGCUGCAUUUAAUUUUUUUGCCAGUUUAAAAUGUUUGUGUGUUUUUAUAGAUGAUUUUAACUGGUACAUAUUUUGAGUUAA | -2.15
UAACUUUAGAGGAGGAUCUGAUGGAUAUGGCAGUGGACGUGGAUUUGGGGAUGGCUAUAAUGGGUAUGGAGGCGGACCUGGAGGUGGCAA | -1.08

Set 2
Target: CREBL2, bZIP domain (human)
Technique: DHFR protein complementation
Matrix: yeast
Setting: single substitutions, most at no-binding floor
Baseline: wild-type JUN-FOS pair
Reading: higher = stronger binding
Starting sequence: JUN, bZIP domain (human); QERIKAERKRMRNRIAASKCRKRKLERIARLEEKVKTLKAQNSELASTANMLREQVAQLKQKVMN; partner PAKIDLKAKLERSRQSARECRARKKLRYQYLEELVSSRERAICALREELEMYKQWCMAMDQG
Substitution | binding fitness [natural log]
E44H | -1.46
L45V | -1.41
L52N | -1.43
L52A | -1.45

Further values, each from its own experiment
CCNB2: CCNB2, cyclin fold, Cln2 fusion (human)
P1: GMNC docking peptide (human); KNAKRNLSSEFAN; partner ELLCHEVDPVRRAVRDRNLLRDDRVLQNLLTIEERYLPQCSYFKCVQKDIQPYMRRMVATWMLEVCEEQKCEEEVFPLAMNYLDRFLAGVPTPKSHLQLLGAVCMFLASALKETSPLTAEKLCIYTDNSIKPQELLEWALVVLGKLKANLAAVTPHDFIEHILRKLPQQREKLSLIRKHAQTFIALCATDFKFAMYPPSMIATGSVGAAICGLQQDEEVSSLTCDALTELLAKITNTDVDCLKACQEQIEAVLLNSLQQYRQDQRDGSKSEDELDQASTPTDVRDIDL
P2: CDC6 docking peptide (human); TLKGRRLVFDNQL; partner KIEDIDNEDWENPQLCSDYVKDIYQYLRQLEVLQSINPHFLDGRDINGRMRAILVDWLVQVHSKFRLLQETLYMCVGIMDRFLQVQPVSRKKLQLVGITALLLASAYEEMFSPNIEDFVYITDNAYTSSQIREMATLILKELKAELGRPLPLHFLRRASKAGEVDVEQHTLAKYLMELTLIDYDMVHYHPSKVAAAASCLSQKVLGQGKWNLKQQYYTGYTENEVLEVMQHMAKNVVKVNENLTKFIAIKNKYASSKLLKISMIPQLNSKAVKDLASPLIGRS
P3: DBF4B docking peptide (human); LGYLYLLLTQSLW; partner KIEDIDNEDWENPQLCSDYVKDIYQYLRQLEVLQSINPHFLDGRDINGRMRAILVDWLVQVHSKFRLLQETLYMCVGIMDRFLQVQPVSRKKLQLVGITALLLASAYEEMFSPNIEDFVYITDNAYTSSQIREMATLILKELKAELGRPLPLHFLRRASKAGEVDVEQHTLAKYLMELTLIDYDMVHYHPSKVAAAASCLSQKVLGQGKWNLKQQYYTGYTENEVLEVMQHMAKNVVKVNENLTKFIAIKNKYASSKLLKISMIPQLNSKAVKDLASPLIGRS
Substance | target | assay | system | setting | how to read | measurement | result
P1 S8P | CCND2, cyclin fold, Cln2 fusion (human) | yeast growth competition, sequencing | yeast | weak parent motif | baseline: not given, higher = stronger binding | normalised enrichment score | 0.0676
PhoQ, residues 284 288 289 292 302 303 AEGLLW | PhoP, residues 12 14 15 18 19 GQAIL (Escherichia coli, UniProt P23836) | Sort-seq, refers to: YFP reporter | E. coli | PhoQ-PhoP variant library, with: 10 µM Mg2+ | baseline: high Mg2+ state, higher = stronger signaling | fold induction | 6.37
P2 F9A | CCNB2 | yeast growth competition, sequencing | yeast | weak parent motif | baseline: not given, higher = stronger binding | normalised enrichment score | 0.352
P3 L7A | CCNB2 | yeast growth competition, sequencing | yeast | weak parent motif | baseline: not given, higher = stronger binding | normalised enrichment score | -0.22
P2 R5A | CCNB2 | yeast growth competition, sequencing | yeast | weak parent motif | baseline: not given, higher = stronger binding | normalised enrichment score | 0.12

Some of these lines once more (set 2):
Substitution | binding fitness [natural log]
L52A | -1.45
E44H | -1.46
